Results pooled from the literature.
Every numbered part comes from another study and shows a few of its results, in no order. Substitutions count along the parent as printed.

Set 1
Target: Centromere-binding protein 1, full length, N-terminal tag (CBF1, Saccharomyces cerevisiae, UniProt P17106, residues 1-351)
Sequence of UniProt P17106 (whole entry, looked up): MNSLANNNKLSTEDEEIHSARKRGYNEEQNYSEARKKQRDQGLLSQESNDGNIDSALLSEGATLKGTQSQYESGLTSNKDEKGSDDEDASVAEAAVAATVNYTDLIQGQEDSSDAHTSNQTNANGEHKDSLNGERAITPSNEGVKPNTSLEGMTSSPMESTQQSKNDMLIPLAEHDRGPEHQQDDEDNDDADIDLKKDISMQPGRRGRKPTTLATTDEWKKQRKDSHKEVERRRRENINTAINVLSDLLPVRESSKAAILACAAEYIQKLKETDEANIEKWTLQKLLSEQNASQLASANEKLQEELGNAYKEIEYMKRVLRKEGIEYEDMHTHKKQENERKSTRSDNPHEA
Technique: protein-binding microarray
Form: double-stranded DNA, one strand shown
Sample: in vitro
Concentration: 0.8 µM
Setting: whole 60-bp probe, no competitor
Reading: higher = stronger binding
Shared flanks, not repeated: … GTCTTGATTCGCTTGACGCTGCTG
For `GAATTGACAAAGGGTGCCGTCACGGTCAGTGATTAG`, the fluorescence intensity was 551 a.u.
For `CTATACTATCCGTGAAGCGTGACCGGCCCTTCTTTC`, the fluorescence intensity was 1160 a.u.
The fluorescence intensity of `CTATACCGAACATGTCACCTTGCATACCAACACTTC` is reported as 542 a.u.
`CTAGCACTACTTTTTCACCAGATTAATGGTGCATTC` has a fluorescence intensity of 510 a.u.
For `GAATCTTTACTGTGCAATCACATGTACAAGGCTTAG`, the fluorescence intensity was 2060 a.u.
For `CTATAGGTTGCTTATCACACCATATGGTGCACCTTC`, the fluorescence intensity was 561 a.u.
With `CCTAACTACTATAGAAAGGTCACATAGCTTCGTACA` the fluorescence intensity was 565 a.u.
For `CCTAACTACTATAAGTACGTGCAATAGCTTCGTACA`, the fluorescence intensity was 490 a.u.
With `GAACAAACTAAATAGCACGTAATTTATTTTTACTAG` the fluorescence intensity was 576 a.u.
For `CTACTCATAAAGCACGTGGCCTCTTATCGAGAATTC`, the fluorescence intensity was 10100 a.u.
For `TGTACGAAGCTATCACAGGTGACTATAGTAGTTAGG`, the fluorescence intensity was 740 a.u.
With `GAAAGTTCTATGTACTGCATCAGAAAATGGCGATAG` the fluorescence intensity was 625 a.u.
`GAATGTTCTCTCTTTCACGTGATAAGGTTTGCATAG` has a fluorescence intensity of 10100 a.u.
`CCTAACTACTATAATCATGTCTCATAGCTTCGTACA` gave a fluorescence intensity of 551 a.u.
For `GAATCCAAGAACTACCTCGTGCCATACCTGTTATAG`, the fluorescence intensity was 712 a.u.
With `GAAATGAGAAGAGAACACGTGAAGAACTTAGGGTAG` the fluorescence intensity was 3520 a.u.
For `TGTACGAAGCTATATCAGGAGAATATAGTAGTTAGG`, the fluorescence intensity was 532 a.u.

Set 2
Target: CCND1, cyclin fold, Cln2 fusion (human)
Technique: yeast growth competition, sequencing
Sample: yeast
Setting: weak parent motif
Reference: not given
Reading: higher = stronger binding
Starting sequence: E2F8 docking peptide (human); FVPQRKLEVSTED
`E8A` — result for “normalised enrichment score”: -0.143.
`V9F`: “normalised enrichment score” 0.351.
Under “normalised enrichment score”, `P3A` is recorded as 0.608.
`V9A`: “normalised enrichment score” -0.156.
`R5A L7A` — result for “normalised enrichment score”: 0.0531.
`R5K` — result for “normalised enrichment score”: 0.123.
Under “normalised enrichment score”, `V2A` is recorded as -0.139.
Under “normalised enrichment score”, `S10A` is recorded as -0.0729.
`E12A` — result for “normalised enrichment score”: 0.0705.
`D13A`: “normalised enrichment score” -0.503.
`V9L`: “normalised enrichment score” -0.342.

Set 3
Target: Interferon regulatory factor 3, full length, phosphomimetic (IRF3, Homo sapiens, UniProt Q14653, residues 1-427, S386D/S396D/S398D/S402D/T404D/S405D)
Sequence of UniProt Q14653 (whole entry, unmodified, looked up): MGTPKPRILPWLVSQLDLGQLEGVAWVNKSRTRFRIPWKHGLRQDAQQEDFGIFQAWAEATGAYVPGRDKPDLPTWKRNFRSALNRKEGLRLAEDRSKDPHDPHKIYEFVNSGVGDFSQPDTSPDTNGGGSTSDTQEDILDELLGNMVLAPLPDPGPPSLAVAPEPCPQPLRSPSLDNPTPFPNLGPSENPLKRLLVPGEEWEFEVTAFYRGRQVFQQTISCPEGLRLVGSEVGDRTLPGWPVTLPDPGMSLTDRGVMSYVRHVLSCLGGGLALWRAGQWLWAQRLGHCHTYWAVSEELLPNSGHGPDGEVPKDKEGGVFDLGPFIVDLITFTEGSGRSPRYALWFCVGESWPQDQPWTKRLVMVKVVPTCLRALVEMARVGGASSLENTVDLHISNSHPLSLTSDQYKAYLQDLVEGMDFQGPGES
Technique: protein-binding microarray
Form: double-stranded DNA, one strand shown
Sample: in vitro
Concentration: 2540 nM top
Setting: 60-bp whole probe
Added: salmon DNA 0.4 mg/ml
Reference: random background probes
Reading: higher = stronger binding
Shared flanks, not repeated: GCCTAGCAC … GTCTTGATTCGCTTGACGCTGCTG
For `TTAGGTTTCAGTCTCGGTTAGTGCTAG`, “fitted relative affinity” read 5.13 z-score.
`TCATGTCTTAGATTCCTACTGTGCTAG`: “fitted relative affinity” 1.03 z-score.
For `GACGGTTTCGCTCTCGGGACGTGCTAG`, “fitted relative affinity” read 6.67 z-score.
Under “fitted relative affinity”, `CTACACATCTCACTCTAATCGTGCTAG` is recorded as 0.836 z-score.
Under “fitted relative affinity”, `GACGAACTGAGACTTGAGACGTGCTAG` is recorded as -0.295 z-score.
`GACGAACTGTGACTGGAGACGTGCTAG`: “fitted relative affinity” -0.406 z-score.
For `TGAGAACTGAGTTTCGATTAGTGCTAG`, “fitted relative affinity” read 2.61 z-score.
`TTAGGACTGCTTCTCGTTTAGTGCTAG`: “fitted relative affinity” 0.0414 z-score.
For `TTAGGTTTCGGTTCGGGTTAGTGCTAG`, “fitted relative affinity” read 8.5 z-score.
`TTAGGTATCGTGACTGGGTTAGTGCTA` — result for “fitted relative affinity”: -0.00691 z-score.
`TTACGACTGGACTTTCGGTTAGTGCTA`: “fitted relative affinity” 1.06 z-score.
For `GATGGTTTCGGGTTTCGGGACGTGCTA`, “fitted relative affinity” read 5.57 z-score.
`GAGGGACTGGGTTTCGGGACGTGCTAG`: “fitted relative affinity” 0.93 z-score.
For `TTCGATTCCAGTTTCGATTAGTGCTAG`, “fitted relative affinity” read 4.35 z-score.
`TGAAAACTAAGTTTATTAGAGTGCTAG` — result for “fitted relative affinity”: -0.0711 z-score.
For `GACGGACTGCTTAACCTGACGTGCTAG`, “fitted relative affinity” read -0.327 z-score.
`TTAGATATCAGTTTGGATTAGTGCTAG` — result for “fitted relative affinity”: 0.787 z-score.
`TTAGGACTGGGGTTTCTGTTAGTGCTA`: “fitted relative affinity” 0.201 z-score.
Under “fitted relative affinity”, `TCTCTCCCTTTATCTCTTTTGTGCTAG` is recorded as 2.93 z-score.
Under “fitted relative affinity”, `CTAGAACTGGGGTATCGATTAGTGCTA` is recorded as -0.303 z-score.
`CACGGACTGCTTATCCTGACGTGCTAG` — result for “fitted relative affinity”: -0.437 z-score.

Set 4
Target: Hepatocyte nuclear factor 3-beta, forkhead domain (FOXA2, Homo sapiens, UniProt Q9Y261, residues 142-269)
Technique: protein-binding microarray
Form: double-stranded DNA, one strand shown
Sample: in vitro
Concentration: not given
Setting: k-mer, scored over probes, only values ≥0.25
Reading: higher = stronger binding
Construct (chain): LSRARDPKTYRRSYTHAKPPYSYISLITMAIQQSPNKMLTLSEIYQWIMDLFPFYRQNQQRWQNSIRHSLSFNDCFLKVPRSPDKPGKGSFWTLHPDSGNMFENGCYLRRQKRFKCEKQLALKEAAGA
`GTCATTAA` gave an E-score of 0.36.
The E-score of `GATGACAA` is reported as 0.298.
For `CAATCATA`, the E-score was 0.294.
`ATGTTATC` gave an E-score of 0.266.
`AACTAATG` has an E-score of 0.258.
`ACAAATAC` gave an E-score of 0.355.
The E-score of `GTAAATAC` is reported as 0.306.
`AACTATGA` has an E-score of 0.255.
`CTATATAC` has an E-score of 0.369.
The E-score of `AAAGTATG` is reported as 0.302.
`GTTTAATA` has an E-score of 0.279.
`AATATAAA` gave an E-score of 0.27.
`AGTATAAT` has an E-score of 0.282.
`GATGTAAA` gave an E-score of 0.271.
With `AGTTACAC` the E-score was 0.252.
`ACCTAATC` gave an E-score of 0.285.

Set 5
Target: RING finger protein unkempt homolog, zinc fingers 1-6, GST-SBP tag (UNK, Homo sapiens, UniProt Q9C0B0, residues 30-357)
Technique: RNA Bind-n-Seq
Form: RNA
Sample: in vitro
Concentration: not given
Setting: RNA with constant flanks, human and mouse sites, ends assumed
Reference: input RNA pool
Reading: higher = stronger binding
Shared flanks, not repeated: GGGAGUUCUACAGUCCGACGAUC … CAACAGAGGAUUGAGCAUCA
Construct (chain): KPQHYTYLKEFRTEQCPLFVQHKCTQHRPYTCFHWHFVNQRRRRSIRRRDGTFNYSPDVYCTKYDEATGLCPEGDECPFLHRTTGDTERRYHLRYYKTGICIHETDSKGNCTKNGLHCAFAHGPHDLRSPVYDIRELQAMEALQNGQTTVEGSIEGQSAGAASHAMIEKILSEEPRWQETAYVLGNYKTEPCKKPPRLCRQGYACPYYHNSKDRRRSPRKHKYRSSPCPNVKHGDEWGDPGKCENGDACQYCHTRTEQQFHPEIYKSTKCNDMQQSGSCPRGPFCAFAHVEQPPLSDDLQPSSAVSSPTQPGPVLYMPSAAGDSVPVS
The bound/input enrichment of `CAACAGUUUGCACAAGCCCAGCUUCAUCCUUCUUCAUCAGCAUCCUUUACUCAGGCUUCUAAUGUUUCUAAUUACUCAGGUCAGACACUGCAGCCUAUCGGGGUGACUCACGUGCCUGUU` is reported as 0.266 ratio.
With `CAGCAGAGGCUGAUCUUUGCAGGCAAGCAGCUGGAAGAUGGCCGCACCCUGUCAGACUACAACAUCCAGAAAGAGUCCACCCUGCACCUGGUCCUUCGCCUCAGAGGUGGCAUGCAGAUC` the bound/input enrichment was 0.0661 ratio.
`GCAAGAAUUGAUGCUGUGGAUGCGGAGACGGUUCGACGAGUGUGCACCAAGUACAUUCAUGACAAAAGCCCAGCUAUUGCUGCUCUGGGUCCUAUUGAGCGACUACCAGAUUUUAACCAG` gave a bound/input enrichment of 0.219 ratio.
`AGAACUUCAGGAAAUUCACAGAGAGAGUACCAGCUGAUGAAACUGCUUUUGGAUAAUACUCAAAUUAUGAAUGCUCUGCAGAAAUAUCCCAACUGUCCUACAGAUGUGAGGCAGUGGGCA` has a bound/input enrichment of 0.138 ratio.
For `UUAUUUUUAAGAAGAUGCCAAUAUAAUUUUUGUAAGAAGGCAGUAACCUUUCAUCAUGAUCAUAGGCAGUUGAAAAAUUUUUACACCUUUUUUUUCACAUUUUACAUAAAUAAUAAUGCU`, the bound/input enrichment was 9.57 ratio.
`AGGGAUGGCCCCCAAUCCCACCUCUGUUUAUUCUGUAAACUGCAACCUAUAAAUAACCUUUAGCAUUCCUAUUGUAACAAAAUUAAUUUUUAUGAAAUAAAUUAUAUUUCCUAGUCUAAU` gave a bound/input enrichment of 256 ratio.
With `GGAACACAGCAGAGGGUGUGUAAUAAAAUACAGAUUGGAAAGAAGACUGAUGAAGAAAAAUAACAGCAUGAUUCAGGCACACCAUUGAGUUCUUUGGGAUGCCCGAAAGUGUCUGGUUGG` the bound/input enrichment was 0.231 ratio.
For `GGGCGGACCCGGUGGGCCGACCUGAAGAGUACUCUGGUCUUUAUCACUUUCACUUACGGUUUUUCACCUGUGCUAAAGACCCUGACGGAGUCUGUCAGUACAGACACUAUCUACGCCAUG`, the bound/input enrichment was 0.112 ratio.
For `CGGGUCGGAGACUACGUUUAUUUUGAGAAUUCCUCCAGCAACCCGUACCUCAUCAGACGGAUAGAGGAGCUCAACAAGACUGCAAGUGGCAAUGUGGAAGCAAAAGUCGUCUGCUUUUAC`, the bound/input enrichment was 0.178 ratio.
For `AAGCAUGUUAUUUAUUAGCAAUGAUAUGCAGUCAAUAAUAUUUGUCAUUUAAAAGUAAUGGUGUUGCUUUUUUUUUUUUUUUAAAUGGUUUUUCAAGACAGGGUUUCUCUGUAUAGCCCU`, the bound/input enrichment was 1.87 ratio.
The bound/input enrichment of `AGGGAGCCACGUGCCCCGCCCCACCCGCUCGGGUGAAGCCCAGUGGGAUUUGCAUCUUUCUUUCUCUUUGGUUCCUGCACAUUUAUGGGCUGGGAGGCAUCCGUGUGGAAUUGCGUGCAG` is reported as 0.256 ratio.
